# Results gathered from unrelated publications.
# Protein sequences, listed by entry. Tags and fused reporters are not part of them.
# UniProt P21836, whole entry, looked up: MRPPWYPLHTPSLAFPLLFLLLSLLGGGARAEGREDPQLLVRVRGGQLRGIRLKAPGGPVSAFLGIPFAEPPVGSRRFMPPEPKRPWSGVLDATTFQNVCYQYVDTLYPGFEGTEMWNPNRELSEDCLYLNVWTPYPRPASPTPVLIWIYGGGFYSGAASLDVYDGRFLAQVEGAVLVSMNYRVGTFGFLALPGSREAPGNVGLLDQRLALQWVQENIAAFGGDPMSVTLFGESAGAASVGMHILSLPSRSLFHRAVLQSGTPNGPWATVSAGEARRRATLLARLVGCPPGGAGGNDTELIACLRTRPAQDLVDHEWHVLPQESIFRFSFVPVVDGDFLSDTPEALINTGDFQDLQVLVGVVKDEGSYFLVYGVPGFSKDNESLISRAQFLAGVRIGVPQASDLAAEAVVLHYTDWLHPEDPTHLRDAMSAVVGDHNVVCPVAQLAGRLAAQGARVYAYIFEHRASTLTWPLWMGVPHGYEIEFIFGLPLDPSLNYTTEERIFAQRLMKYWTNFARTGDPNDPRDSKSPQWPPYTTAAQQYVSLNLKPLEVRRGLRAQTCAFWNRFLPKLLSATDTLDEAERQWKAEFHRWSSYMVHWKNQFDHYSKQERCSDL
# UniProt P35372, whole entry: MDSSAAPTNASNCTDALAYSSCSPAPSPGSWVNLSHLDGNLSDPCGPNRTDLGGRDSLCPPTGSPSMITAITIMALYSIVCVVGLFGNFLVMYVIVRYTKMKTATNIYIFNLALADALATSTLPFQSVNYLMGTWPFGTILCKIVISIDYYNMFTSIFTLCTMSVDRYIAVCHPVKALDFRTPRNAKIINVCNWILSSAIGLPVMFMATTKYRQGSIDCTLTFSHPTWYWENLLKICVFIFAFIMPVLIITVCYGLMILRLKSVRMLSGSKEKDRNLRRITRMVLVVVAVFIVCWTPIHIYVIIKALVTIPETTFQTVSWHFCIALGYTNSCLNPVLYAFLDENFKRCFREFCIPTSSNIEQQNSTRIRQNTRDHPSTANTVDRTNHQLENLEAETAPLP
# UniProt Q03311, whole entry, looked up: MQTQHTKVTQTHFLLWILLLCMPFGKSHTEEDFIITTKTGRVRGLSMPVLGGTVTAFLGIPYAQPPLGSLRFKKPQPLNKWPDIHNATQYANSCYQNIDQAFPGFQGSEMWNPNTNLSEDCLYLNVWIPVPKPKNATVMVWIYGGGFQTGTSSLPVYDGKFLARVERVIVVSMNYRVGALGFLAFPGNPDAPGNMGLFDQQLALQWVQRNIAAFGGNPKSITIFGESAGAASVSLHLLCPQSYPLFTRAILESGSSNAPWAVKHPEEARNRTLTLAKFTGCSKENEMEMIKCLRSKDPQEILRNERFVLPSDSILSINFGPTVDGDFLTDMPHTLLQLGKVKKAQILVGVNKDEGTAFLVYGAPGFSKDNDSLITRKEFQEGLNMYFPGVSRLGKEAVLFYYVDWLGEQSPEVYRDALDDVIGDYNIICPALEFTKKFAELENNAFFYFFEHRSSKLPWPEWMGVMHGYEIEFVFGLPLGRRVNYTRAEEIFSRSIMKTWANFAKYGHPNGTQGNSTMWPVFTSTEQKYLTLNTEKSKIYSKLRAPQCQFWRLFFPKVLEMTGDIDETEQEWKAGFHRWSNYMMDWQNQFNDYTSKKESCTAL
# UniProt P41146, whole entry: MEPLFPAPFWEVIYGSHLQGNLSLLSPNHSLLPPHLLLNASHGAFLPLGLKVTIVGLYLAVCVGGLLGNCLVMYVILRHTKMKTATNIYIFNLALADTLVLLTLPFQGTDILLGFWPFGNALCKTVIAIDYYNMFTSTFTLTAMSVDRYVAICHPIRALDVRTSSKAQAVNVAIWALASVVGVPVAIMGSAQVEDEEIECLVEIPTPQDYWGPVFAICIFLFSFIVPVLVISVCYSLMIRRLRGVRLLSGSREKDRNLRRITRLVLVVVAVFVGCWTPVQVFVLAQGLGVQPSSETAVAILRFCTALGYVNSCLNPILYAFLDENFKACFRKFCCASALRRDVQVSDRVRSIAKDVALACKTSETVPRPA
# Each line is one published result; not all experiments were run side by side. Numbers after ± are the reported error.
# Ache: Acetylcholinesterase (Ache, Mus musculus, UniProt P21836)
# rep nsp13 helicase: Replicase polyprotein 1ab, nsp13 helicase (rep, Severe acute respiratory syndrome coronavirus 2, UniProt P0DTD1)
# Botulinum neurotoxin type A light chain: Botulinum neurotoxin type A, light chain (Clostridium botulinum, UniProt P0DPI0)
# OPRM1: Mu-type opioid receptor (OPRM1, Homo sapiens, UniProt P35372)
SMILES,target or system,test,system,conditions,quantity,result
CCOP(=S)(OCC)Oc1nc(Cl)c(Cl)cc1Cl,Ache,,"ES1-/- mice, plasma","transdermal, 100.0 mg/kg, 6.0 h, toxicant challenge",inhibition,70.1 ± 15.1%
CN(C)[C@]1(c2ccccc2)CC[C@]2(CC1)OCCc1c3cc(F)ccc3[nH]c12,rep nsp13 helicase,"helicase activity, inhibitor",,20 µM,inhibition,3%
O=C(O)c1cc(-c2ccc(-c3c(-c4ccc5c(c4)OCO5)noc3-c3ccsc3)cc2)nc2ccccc12,Botulinum neurotoxin type A light chain,"inhibitor, FRET, YFP-SNAP25-CFP substrate",,"concentration not given, full-length toxin",inhibition,inhibited
Cc1cc2c(-c3ccco3)cnc(N[C@@H]3CCN(C)C[C@H]3C(=O)NC3CCCCC3)c2[nH]c1=O,OPRM1,"binding, radioligand binding",,10 µM,inhibition,27%
CCOP(=O)(OCC)Oc1ccc([N+](=O)[O-])cc1,Ache,,"ES1-/- mice, plasma","subcutaneous, 0.2 mg/kg, 0.5 h, toxicant challenge",inhibition,61.4 ± 2.2%
O=C1Cc2ccccc2N1C1CCN([C@H]2CC[C@@H]3CCCc4cccc2c43)CC1 (relative stereo),OPRM1,agonist,cell membranes,,EC50,0.409 ± 0.219 µM
NC(Cc1ccc([N+]([O-])(CCCl)CCCl)cc1)C(=O)O (stereo not shown),"Replicase polyprotein 1ab, main protease (rep, Severe acute respiratory syndrome coronavirus 2, UniProt P0DTD1)",,,"20 µM, primary screen",inhibition,37.1%
CN(C(=O)Cc1ccc(Cl)c(Cl)c1)[C@H]1CC[C@@]2(CCCO2)C[C@@H]1N1CCCC1,rep nsp13 helicase,"helicase activity, inhibitor",,20 µM,inhibition,2.17%
O=c1c(O)c(-c2ccc(O)c(O)c2)oc2cc(O)cc(O)c12,"Replicase polyprotein 1ab, 3C-like proteinase (rep, Severe acute respiratory syndrome-related coronavirus, UniProt P0C6X7)","3CLpro cleavage, luciferase reporter",Vero,concentration not given,inhibition,no inhibition
NC12CC3CC(CC(C3)C1)C2,Influenza A virus,viral replication,"MDCK, A/Swine/Indiana/24-0218/2010 (H1N2)",,EC50,≥ 100 µM
CS(=O)(=O)SCCCNC(=O)CC(CC(=O)O)c1ccc(Cl)cc1Cl (stereo not shown),Botulinum neurotoxin type A light chain,,,up to 500 µM,inhibition,no inhibition
CNC(=O)Oc1cccc2c1OC(C)(C)C2,"Cholinesterase (Bche, Mus musculus, UniProt Q03311)",,"ES1+/+ mice, plasma","subcutaneous, 1.0 mg/kg, 0.5 h, toxicant challenge",inhibition,25.8 ± 2.9%
CCC1C(=O)N(C2CCN(C/C=C/c3ccccc3)CC2)c2ccccc21 (stereo not shown),"Nociceptin receptor (OPRL1, Homo sapiens, UniProt P41146)",radioligand displacement,,together with: [3H]N/OFQ,Ki,> 10 µM

# Excerpt of the above:
SMILES,target or system,test,system,conditions,quantity,result
CN(C(=O)Cc1ccc(Cl)c(Cl)c1)[C@H]1CC[C@@]2(CCCO2)C[C@@H]1N1CCCC1,rep nsp13 helicase,"helicase activity, inhibitor",,20 µM,inhibition,2.17%
O=C1Cc2ccccc2N1C1CCN([C@H]2CC[C@@H]3CCCc4cccc2c43)CC1 (relative stereo),OPRM1,agonist,cell membranes,,EC50,0.409 ± 0.219 µM
